Results of several laboratories.
Compare with care: the assays were run in different laboratories.
Target: Beta-1 adrenergic receptor (ADRB1, Homo sapiens, UniProt P08588)
UniProt P08588, sequence (whole entry, looked up): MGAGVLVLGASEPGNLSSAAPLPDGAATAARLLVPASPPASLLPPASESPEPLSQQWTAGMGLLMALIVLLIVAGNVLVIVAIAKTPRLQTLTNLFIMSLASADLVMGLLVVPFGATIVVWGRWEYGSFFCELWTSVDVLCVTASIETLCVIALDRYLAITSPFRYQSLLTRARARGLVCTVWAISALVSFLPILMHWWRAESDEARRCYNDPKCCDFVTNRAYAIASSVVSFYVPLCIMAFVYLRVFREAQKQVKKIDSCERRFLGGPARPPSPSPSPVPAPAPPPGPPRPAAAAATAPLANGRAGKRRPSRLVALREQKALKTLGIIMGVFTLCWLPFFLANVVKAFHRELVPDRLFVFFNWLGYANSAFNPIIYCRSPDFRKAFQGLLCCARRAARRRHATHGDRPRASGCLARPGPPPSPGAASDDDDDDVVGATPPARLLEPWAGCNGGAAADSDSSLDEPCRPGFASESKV

| SMILES | assay | test system | setting | inhibition |
| --- | --- | --- | --- | --- |
| Cn1ccc2cc(-n3c(=O)[nH]c4sc5c(c4c3=O)CCCC5)ccc21 | cell-free assay, radioligand |  | 10 µM | -7% |
| COCC(=O)N1CCc2cc(-c3csc(NC(=O)c4cc(OC)cc(OC)c4)n3)ccc21 | cell-free assay |  | 10 µM | 2% |
| CNC(=O)C[C@H](Cc1ccc(C#N)cc1)NC(=O)c1cc(-c2ccc(CN[C@H](C)c3ccc(C)cc3)o2)ccc1Cl | agonist response, antagonist | 1 | 10 µM | -23% |
| Cc1[nH]nc2c1N=C(c1ccccc1Cl)c1cnc(N3CCOCC3)cc1N2 | cell-free assay |  | 10 µM | 8% |
| Brc1ccccc1-c1nnc(CSc2nnnn2-c2ccccc2)o1 | ligand displacement, radioligand |  | 10 µM | 7% |
| CCC(=O)N(C)c1ccc(Cl)c(Cl)c1 | ligand displacement, radioligand |  | 10 µM | < 10% |
| COc1ccc(C#CC2=C[C@H]3C[C@@]4(OC(=O)C=C24)[C@H]2CC[C@H](C(OC)OC)N32)cc1 | ligand displacement, radioligand |  | 10 µM | 5% |
| CO[C@@H](C)c1c(NC(=O)Nc2cnc(-n3nccn3)c(C(F)(F)F)c2)cnc2sc(C)nc12 | ligand displacement, radioligand |  | 10 µM | 3.8% |
| COc1ccc(C(=O)Nc2c(-c3cccs3)nc3ccccn23)cc1 | ligand displacement, radioligand |  | 10 µM | < 50% |
| O=C1c2sc(-c3ccc(N4CCC(CO)CC4)nc3F)nc2CCN1c1cccnc1 | ligand displacement, radioligand |  | 1 µM | -5% |
| C[Si](C)(C)C[C@@H](CN)CC(=O)O | cell-free assay, inhibitor |  | 75 µM | -8% |
